Published values pooled from the literature.
Protocols differ between the studies behind these lines. Values joined by “and” are separate records of one study, mostly repeats; a detail may differ.
Target: Mitogen-activated protein kinase kinase kinase kinase 4 (MAP4K4, Homo sapiens, UniProt O95819)

C=CC(=O)Nc1cc(-c2nn(C3CCN(CCNC(=O)[C@H](C)CCC45CC6CC(CC(C6)C4)C5)CC3)c3ncnc(N)c23)ccc1Oc1ccccc1 — inhibition (inhibitor, KiNativ profiling; biochemical; 2 µM): 8.6%
C=CC(=O)Nc1cccc(-c2cnc3[nH]cc(C(=O)NC(C)(C)C)c3n2)c1 — inhibition (enzyme activity, inhibitor; 0.1 µM): 25%
COc1c(Cl)cccc1Nc1c(-c2ccncc2C#C[C@@]2(C)CCCN2C(=O)/C=C/CN(C)C)[nH]c2c1C(=O)NCC2 — remaining binding (binding, competition with immobilised ligand; 3 µM): 48%
Nc1ncc2c(n1)-c1c([nH]c3ccc(C4=CCOCC4)cc13)CCC2 — remaining binding (binding, competition with immobilised ligand; 1 µM): 86%
COc1cc(-n2cc3cc(F)cc(C(N)=O)c3n2)cc(Cl)c1C1CC(O)(CCO)Cc2ccccc21 (stereo not drawn) — inhibition (enzyme activity, inhibitor; 10 µM): 0.78%
CCN1CCN(Cc2ccc(C(=O)Nc3ccc(C)c(NCc4cnc5[nH]ccc5c4OC)c3)cc2C(F)(F)F)CC1 — remaining binding (binding, competition with immobilised ligand; 1 µM): 0.75%
CCN1CCN(Cc2ccc(NC(=O)c3ccc(C)c(NC(=O)c4cncc(-c5cccs5)c4)c3)cc2C(F)(F)F)CC1 — remaining binding (binding, competition with immobilised ligand; 1 µM): 7.2%
Cc1cccc(O[C@H]2CCC[C@@H](C(C)CNCc3ccncc3)C2)c1 (relative stereo) — inhibition (enzyme activity, inhibitor; 10 µM): -6%
CNC1C[S+]2CC[S+]3CC[S+](C1)[Ru-4]321([N]=C=S)[n]2c3ccc(OC)cc3c3c4c(c5cc(F)c[n+]1c5c32)C(=O)NC4=O (stereo not drawn) — remaining binding (KinomeScan; 0.1 µM; relative to: untreated): 97%
CN1CCN(Cc2ccc(-c3ccc(CO[C@H]4CCC[C@@H]4NC(=O)c4cc(-c5cnn(C)c5)cnc4N)cc3)cc2)CC1 — inhibition (enzyme activity, inhibitor; 0.1 µM): 6%
CNC(=O)C[C@H](Cc1ccc(C#N)cc1)NC(=O)c1cc(-c2ccc(CN[C@H](C)c3ccc(C)cc3)o2)ccc1Cl — activity vs control (enzyme activity, inhibitor; 1 µM): 99%
COc1cc(Nc2nc(C)cc(-c3cnn4nc(OC)ccc34)n2)cc(C(F)(F)F)c1 — remaining activity (inhibitor; 1 µM; relative to: control): 99%
CCn1cc(C(=O)O)c(=O)c2c(N)c(F)c(NC3CCCCC3)cc21 — inhibition (kinase activity; 0.1 µM, together with: ATP at Km): -1.9%
COCC12C(=O)NC3C4(C(OC)CC1O)C1CC5(O)C(OC)C(O)C(OC(C)=O)(C1C5OC(=O)c1ccccc1)C3(O)C(OC)C24 (stereo not drawn) — remaining activity (kinase activity, inhibitor, ProQinase kinase profiling; 25 µM; relative to: control): 89% and 100%
NC(=O)[C@@H](O)C[C@H]1CCc2sc3ncnc(O[C@H]4CC[C@H](N5CCOCC5)CC4)c3c21 — inhibition (enzyme activity, inhibitor; 10 µM): 30%

Excerpt of the above:
C=CC(=O)Nc1cc(-c2nn(C3CCN(CCNC(=O)[C@H](C)CCC45CC6CC(CC(C6)C4)C5)CC3)c3ncnc(N)c23)ccc1Oc1ccccc1 — inhibition (inhibitor, KiNativ profiling; biochemical; 2 µM): 8.6%
C=CC(=O)Nc1cccc(-c2cnc3[nH]cc(C(=O)NC(C)(C)C)c3n2)c1 — inhibition (enzyme activity, inhibitor; 0.1 µM): 25%
